Results of several laboratories.
Numbered parts are unrelated; each lists some results of a single study.
UniProt P10721, sequence (whole entry, unmodified, looked up): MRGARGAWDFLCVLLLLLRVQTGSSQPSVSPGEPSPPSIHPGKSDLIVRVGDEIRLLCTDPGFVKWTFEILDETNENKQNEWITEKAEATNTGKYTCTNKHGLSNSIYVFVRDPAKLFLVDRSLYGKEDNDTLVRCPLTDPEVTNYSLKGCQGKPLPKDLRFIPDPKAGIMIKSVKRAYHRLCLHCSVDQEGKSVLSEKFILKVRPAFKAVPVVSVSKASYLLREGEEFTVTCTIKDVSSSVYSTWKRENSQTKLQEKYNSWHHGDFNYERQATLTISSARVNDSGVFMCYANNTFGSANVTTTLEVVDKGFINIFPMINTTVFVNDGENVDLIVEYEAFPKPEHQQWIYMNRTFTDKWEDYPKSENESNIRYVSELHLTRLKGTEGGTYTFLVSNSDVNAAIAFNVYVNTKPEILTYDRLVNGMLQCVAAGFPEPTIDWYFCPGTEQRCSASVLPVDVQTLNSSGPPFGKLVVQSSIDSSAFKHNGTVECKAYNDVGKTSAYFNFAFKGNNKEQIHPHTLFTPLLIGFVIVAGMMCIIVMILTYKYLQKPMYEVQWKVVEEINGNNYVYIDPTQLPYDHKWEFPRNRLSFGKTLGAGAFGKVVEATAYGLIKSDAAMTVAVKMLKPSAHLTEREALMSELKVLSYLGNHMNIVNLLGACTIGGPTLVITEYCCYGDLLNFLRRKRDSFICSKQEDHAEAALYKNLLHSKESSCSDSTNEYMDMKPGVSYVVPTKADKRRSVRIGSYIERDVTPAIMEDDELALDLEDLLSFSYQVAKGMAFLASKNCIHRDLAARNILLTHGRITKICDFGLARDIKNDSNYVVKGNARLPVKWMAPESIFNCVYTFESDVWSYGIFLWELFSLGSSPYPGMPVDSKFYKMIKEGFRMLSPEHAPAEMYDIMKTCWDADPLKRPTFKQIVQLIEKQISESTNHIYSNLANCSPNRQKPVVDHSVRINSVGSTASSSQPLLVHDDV
UniProt Q8NE63, sequence (whole entry, looked up): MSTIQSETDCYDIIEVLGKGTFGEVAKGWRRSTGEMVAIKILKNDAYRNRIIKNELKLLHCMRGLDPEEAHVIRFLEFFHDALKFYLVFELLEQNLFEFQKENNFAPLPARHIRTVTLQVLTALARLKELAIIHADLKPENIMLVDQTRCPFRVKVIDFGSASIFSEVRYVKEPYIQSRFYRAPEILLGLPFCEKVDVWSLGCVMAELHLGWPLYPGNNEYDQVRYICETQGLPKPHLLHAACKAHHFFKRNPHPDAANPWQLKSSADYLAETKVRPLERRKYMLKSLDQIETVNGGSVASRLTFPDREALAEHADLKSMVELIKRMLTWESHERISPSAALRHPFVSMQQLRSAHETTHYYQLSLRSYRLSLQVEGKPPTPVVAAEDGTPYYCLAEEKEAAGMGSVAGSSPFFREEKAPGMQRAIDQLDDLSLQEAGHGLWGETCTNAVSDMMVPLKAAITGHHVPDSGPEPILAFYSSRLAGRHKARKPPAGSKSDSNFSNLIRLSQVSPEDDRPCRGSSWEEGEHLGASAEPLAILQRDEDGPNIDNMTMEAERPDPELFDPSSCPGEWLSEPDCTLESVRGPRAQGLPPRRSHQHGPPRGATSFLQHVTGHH
UniProt P30530, sequence (whole entry, looked up): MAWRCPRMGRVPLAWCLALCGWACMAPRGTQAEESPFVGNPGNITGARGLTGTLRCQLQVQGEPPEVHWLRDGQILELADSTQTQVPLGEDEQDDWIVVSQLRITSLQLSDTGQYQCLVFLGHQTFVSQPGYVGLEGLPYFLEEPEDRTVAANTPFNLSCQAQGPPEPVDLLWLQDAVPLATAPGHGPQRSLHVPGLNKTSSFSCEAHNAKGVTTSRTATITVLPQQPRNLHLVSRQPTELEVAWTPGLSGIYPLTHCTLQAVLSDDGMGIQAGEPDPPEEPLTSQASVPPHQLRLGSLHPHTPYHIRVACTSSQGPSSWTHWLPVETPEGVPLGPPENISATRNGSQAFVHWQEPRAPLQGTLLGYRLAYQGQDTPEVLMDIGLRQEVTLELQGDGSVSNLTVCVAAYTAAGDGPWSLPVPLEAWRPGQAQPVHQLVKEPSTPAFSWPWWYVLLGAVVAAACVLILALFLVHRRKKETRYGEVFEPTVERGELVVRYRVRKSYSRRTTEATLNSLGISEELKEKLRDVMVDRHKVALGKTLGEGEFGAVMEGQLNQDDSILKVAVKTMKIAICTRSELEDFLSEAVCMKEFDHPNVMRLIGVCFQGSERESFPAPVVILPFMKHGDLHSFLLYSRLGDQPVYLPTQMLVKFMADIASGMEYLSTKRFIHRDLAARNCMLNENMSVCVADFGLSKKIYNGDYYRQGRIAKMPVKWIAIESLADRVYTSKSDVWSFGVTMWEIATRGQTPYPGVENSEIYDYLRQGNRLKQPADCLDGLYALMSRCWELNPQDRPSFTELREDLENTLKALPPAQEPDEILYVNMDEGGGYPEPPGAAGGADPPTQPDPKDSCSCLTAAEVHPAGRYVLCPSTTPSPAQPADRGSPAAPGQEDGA
UniProt Q8NFN8, sequence (whole entry, looked up): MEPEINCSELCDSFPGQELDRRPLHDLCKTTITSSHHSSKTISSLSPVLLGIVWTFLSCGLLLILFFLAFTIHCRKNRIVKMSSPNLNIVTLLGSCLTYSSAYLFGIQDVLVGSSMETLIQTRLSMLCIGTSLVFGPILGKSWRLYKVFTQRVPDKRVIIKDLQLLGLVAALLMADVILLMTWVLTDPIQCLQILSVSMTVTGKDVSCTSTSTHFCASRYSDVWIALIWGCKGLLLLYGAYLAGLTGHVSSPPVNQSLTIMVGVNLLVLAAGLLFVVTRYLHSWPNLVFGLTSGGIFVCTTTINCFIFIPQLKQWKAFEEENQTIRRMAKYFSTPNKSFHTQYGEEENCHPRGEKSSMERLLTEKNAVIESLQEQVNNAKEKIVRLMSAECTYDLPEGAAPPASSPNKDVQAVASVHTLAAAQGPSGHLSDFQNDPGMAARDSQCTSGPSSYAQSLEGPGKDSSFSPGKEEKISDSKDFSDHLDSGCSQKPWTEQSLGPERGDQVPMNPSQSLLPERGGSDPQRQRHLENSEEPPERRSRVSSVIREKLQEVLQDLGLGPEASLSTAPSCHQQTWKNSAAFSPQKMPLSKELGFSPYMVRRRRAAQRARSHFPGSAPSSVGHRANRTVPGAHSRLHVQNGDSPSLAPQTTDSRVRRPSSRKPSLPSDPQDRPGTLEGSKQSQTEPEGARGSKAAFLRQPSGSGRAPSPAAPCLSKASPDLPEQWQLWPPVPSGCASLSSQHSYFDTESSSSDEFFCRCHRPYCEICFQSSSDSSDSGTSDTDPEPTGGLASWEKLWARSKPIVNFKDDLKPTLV
UniProt P21554, sequence (whole entry, looked up): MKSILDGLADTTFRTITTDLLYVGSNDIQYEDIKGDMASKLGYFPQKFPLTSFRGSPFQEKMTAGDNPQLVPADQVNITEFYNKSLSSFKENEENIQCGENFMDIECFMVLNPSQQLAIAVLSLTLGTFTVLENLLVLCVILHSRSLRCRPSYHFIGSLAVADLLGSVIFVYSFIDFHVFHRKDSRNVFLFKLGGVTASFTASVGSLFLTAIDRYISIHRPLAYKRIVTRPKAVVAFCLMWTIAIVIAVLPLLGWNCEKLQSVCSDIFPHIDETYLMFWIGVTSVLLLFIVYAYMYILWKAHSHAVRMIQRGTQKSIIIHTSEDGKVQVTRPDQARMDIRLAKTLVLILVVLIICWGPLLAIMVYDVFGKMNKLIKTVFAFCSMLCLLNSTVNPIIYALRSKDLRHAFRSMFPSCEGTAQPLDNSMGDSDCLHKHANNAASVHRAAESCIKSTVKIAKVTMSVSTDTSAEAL
UniProt Q9H3N8, sequence (whole entry, looked up): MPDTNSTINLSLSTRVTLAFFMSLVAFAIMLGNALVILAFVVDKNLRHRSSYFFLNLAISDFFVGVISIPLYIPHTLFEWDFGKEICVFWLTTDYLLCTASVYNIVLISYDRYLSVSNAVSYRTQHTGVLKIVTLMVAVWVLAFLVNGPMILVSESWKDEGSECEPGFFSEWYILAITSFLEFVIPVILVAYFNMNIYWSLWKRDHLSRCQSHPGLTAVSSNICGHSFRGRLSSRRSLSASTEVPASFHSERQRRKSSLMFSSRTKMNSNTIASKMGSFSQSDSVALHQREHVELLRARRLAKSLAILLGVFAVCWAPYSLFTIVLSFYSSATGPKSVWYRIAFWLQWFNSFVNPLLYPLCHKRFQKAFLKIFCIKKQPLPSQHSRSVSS
UniProt Q12852, sequence (whole entry, looked up): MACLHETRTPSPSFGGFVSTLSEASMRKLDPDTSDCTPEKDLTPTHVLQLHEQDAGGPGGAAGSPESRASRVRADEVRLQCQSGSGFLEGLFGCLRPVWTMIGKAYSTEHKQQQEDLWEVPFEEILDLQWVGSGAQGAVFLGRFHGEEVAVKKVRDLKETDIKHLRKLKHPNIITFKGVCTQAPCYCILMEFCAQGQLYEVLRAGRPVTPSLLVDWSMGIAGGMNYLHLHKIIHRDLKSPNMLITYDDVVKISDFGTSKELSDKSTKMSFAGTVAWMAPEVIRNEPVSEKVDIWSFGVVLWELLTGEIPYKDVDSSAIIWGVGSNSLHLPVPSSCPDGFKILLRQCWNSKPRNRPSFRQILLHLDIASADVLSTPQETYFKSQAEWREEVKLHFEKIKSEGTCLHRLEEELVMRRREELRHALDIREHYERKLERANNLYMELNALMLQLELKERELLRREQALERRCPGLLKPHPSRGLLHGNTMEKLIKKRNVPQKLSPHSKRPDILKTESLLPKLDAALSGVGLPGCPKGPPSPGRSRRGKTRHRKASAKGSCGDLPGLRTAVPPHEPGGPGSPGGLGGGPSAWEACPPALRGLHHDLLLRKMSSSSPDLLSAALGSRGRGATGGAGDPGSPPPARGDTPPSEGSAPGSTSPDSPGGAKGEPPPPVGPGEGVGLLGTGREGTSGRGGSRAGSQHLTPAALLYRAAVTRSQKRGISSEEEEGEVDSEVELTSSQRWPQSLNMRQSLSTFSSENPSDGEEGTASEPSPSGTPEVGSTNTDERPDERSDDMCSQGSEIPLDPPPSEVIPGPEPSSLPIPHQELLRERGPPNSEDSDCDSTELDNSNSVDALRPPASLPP

Study 1
Structure (SMILES): CCN(c1nc(N)c(C(=O)N=C(N)N)nc1Cl)C(C)C
Observed: β-arrestin recruitment
Action: agonist
Technique: PRESTO-Tango
Concentration: 10 µM
Reference: untreated
target	fold over basal
Uracil nucleotide/cysteinyl leukotriene receptor (GPR17, Homo sapiens, UniProt Q13304)	0.88
Cannabinoid receptor 1 (CNR1, Homo sapiens, UniProt P21554)	0.77
Free fatty acid receptor 2 (FFAR2, Homo sapiens, UniProt O15552)	0.68 fold
Melanocyte-stimulating hormone receptor (MC1R, Homo sapiens, UniProt Q01726)	1.31
Sphingosine 1-phosphate receptor 1 (S1PR1, Homo sapiens, UniProt P21453)	0.78
C-X-C chemokine receptor type 6 (CXCR6, Homo sapiens, UniProt O00574)	0.75
Probable G-protein coupled receptor 156 (GPR156, Homo sapiens, UniProt Q8NFN8)	1.09
Probable G-protein coupled receptor 63 (GPR63, Homo sapiens, UniProt Q9BZJ6)	0.73
Mu-type opioid receptor (OPRM1, Homo sapiens, UniProt P35372)	5.87
Histamine H4 receptor (HRH4, Homo sapiens, UniProt Q9H3N8)	0.82 fold
Probable G-protein coupled receptor 34 (Homo sapiens, UniProt Q9UPC5)	0.92
C-X-C chemokine receptor type 3 (CXCR3, Homo sapiens, UniProt P49682)	0.81
Neurotensin receptor type 2 (NTSR2, Homo sapiens, UniProt O95665)	1.15
Proteinase-activated receptor 4 (F2RL3, Homo sapiens, UniProt Q96RI0)	0.63 fold
Leukotriene B4 receptor 1 (LTB4R, Homo sapiens, UniProt Q15722)	0.99
G-protein coupled receptor 161 (GPR161, Homo sapiens, UniProt Q8N6U8)	0.94

Study 2
SMILES: Cc1c[nH]c2nccc(Oc3c(F)cc(Nc4cc(Cl)nc(N)n4)cc3F)c12
Concentration: 0.1 µM
target	observed	technique	remaining binding [%]
Tyrosine-protein kinase Tec (TEC, Homo sapiens, UniProt P42680)	cell-free assay	competition with immobilised ligand	86
Receptor tyrosine-protein kinase erbB-3 (ERBB3, Homo sapiens, UniProt P21860)	cell-free assay	competition with immobilised ligand	65
Ribosomal protein S6 kinase alpha-2, C-terminal kinase domain (RPS6KA2, Homo sapiens, UniProt Q15349)	cell-free assay	competition with immobilised ligand	100
Phosphatidylinositol 4,5-bisphosphate 3-kinase catalytic subunit alpha isoform (PIK3CA, Homo sapiens, UniProt P42336)	cell-free assay	competition with immobilised ligand	83
AP2-associated protein kinase 1 (AAK1, Homo sapiens, UniProt Q2M2I8)	binding		99
Cyclin-dependent kinase 7 (CDK7, Homo sapiens, UniProt P50613)	cell-free assay	competition with immobilised ligand	91
Dual specificity mitogen-activated protein kinase kinase 3 (MAP2K3, Homo sapiens, UniProt P46734)	cell-free assay	competition with immobilised ligand	100
Serine/threonine-protein kinase MAK (MAK, Homo sapiens, UniProt P20794)	cell-free assay	competition with immobilised ligand	84
Tyrosine-protein kinase ABL1, non-phosphorylated (ABL1, Homo sapiens, UniProt P00519)	cell-free assay	competition with immobilised ligand	89
Proto-oncogene tyrosine-protein kinase receptor Ret (RET, Homo sapiens, UniProt P07949, M918T)	cell-free assay	competition with immobilised ligand	100
Serine/threonine-protein kinase N2 (PKN2, Homo sapiens, UniProt Q16513)	cell-free assay	competition with immobilised ligand	100
TGF-beta receptor type-1 (TGFBR1, Homo sapiens, UniProt P36897)	cell-free assay	competition with immobilised ligand	81
Mast/stem cell growth factor receptor Kit (KIT, Homo sapiens, UniProt P10721)	cell-free assay	competition with immobilised ligand	75
Ephrin type-A receptor 1 (EPHA1, Homo sapiens, UniProt P21709)	cell-free assay	competition with immobilised ligand	100
Phosphatidylinositol 5-phosphate 4-kinase type-2 beta (PIP4K2B, Homo sapiens, UniProt P78356)	cell-free assay	competition with immobilised ligand	90
Microtubule-associated serine/threonine-protein kinase 1 (MAST1, Homo sapiens, UniProt Q9Y2H9)	cell-free assay	competition with immobilised ligand	100
Ephrin type-B receptor 3 (EPHB3, Homo sapiens, UniProt P54753)	cell-free assay	competition with immobilised ligand	100
Hepatocyte growth factor receptor (MET, Homo sapiens, UniProt P08581, M1250T)	cell-free assay	competition with immobilised ligand	99
Tyrosine-protein kinase FRK (FRK, Homo sapiens, UniProt P42685)	cell-free assay	competition with immobilised ligand	100
Serine/threonine-protein kinase ULK3 (ULK3, Homo sapiens, UniProt Q6PHR2)	cell-free assay	competition with immobilised ligand	88
Dual specificity protein kinase CLK3 (CLK3, Homo sapiens, UniProt P49761)	cell-free assay	competition with immobilised ligand	91
Mast/stem cell growth factor receptor Kit (KIT, Homo sapiens, UniProt P10721, A829P)	cell-free assay	competition with immobilised ligand	70
Casein kinase I isoform alpha (CSNK1A1, Homo sapiens, UniProt P48729)	cell-free assay	competition with immobilised ligand	96
Mitogen-activated protein kinase kinase kinase 12 (MAP3K12, Homo sapiens, UniProt Q12852)	cell-free assay	competition with immobilised ligand	98
Cyclin-dependent kinase-like 1 (CDKL1, Homo sapiens, UniProt Q00532)	cell-free assay	competition with immobilised ligand	100

Study 3
Compound: CSc1nc(-c2ccnc(N[C@@H](C)c3ccccc3)c2)c(-c2ccc(F)cc2)[nH]1 (racemic)
Observed: enzyme activity
Action: inhibitor
Concentration: 0.5 µM
Reference: control
target	remaining activity [%]
Ribosomal protein S6 kinase alpha-5 (RPS6KA5, Homo sapiens, UniProt O75582)	97.3
3-phosphoinositide-dependent protein kinase 1 (PDPK1, Homo sapiens, UniProt O15530)	91.3
Calcium/calmodulin-dependent protein kinase type II subunit beta (CAMK2B, Homo sapiens, UniProt Q13554)	89.2
Testis-specific serine/threonine-protein kinase 2 (TSSK2, Homo sapiens, UniProt Q96PF2)	78.2
Cyclin-dependent kinase 1, with cyclin B (CDK1, Homo sapiens, UniProt P06493)	106
Serine/threonine-protein kinase 17A (STK17A, Homo sapiens, UniProt Q9UEE5)	97.8
cAMP-dependent protein kinase catalytic subunit gamma (PRKACG, Homo sapiens, UniProt P22612)	115
Tyrosine-protein kinase Blk (BLK, Homo sapiens, UniProt P51451)	110
Mitogen-activated protein kinase kinase kinase kinase 4 (MAP4K4, Homo sapiens, UniProt O95819)	91.6
Tyrosine-protein kinase Srms (SRMS, Homo sapiens, UniProt Q9H3Y6)	104
Cyclin-dependent kinase 6, with cyclin D3 (CDK6, Homo sapiens, UniProt Q00534)	98.3
Cyclin-dependent kinase 4, with cyclin D3 (CDK4, Homo sapiens, UniProt P11802)	111
Homeodomain-interacting protein kinase 4 (HIPK4, Homo sapiens, UniProt Q8NE63)	95.2
Ephrin type-B receptor 4 (EPHB4, Homo sapiens, UniProt P54760)	99.9
Serine/threonine-protein kinase WNK3 (WNK3, Homo sapiens, UniProt Q9BYP7)	97.6
Ephrin type-A receptor 4 (EPHA4, Homo sapiens, UniProt P54764)	93.1
Tyrosine-protein kinase receptor UFO (AXL, Homo sapiens, UniProt P30530)	109
Homeodomain-interacting protein kinase 2 (HIPK2, Homo sapiens, UniProt Q9H2X6)	99.9
Dual specificity tyrosine-phosphorylation-regulated kinase 3 (DYRK3, Homo sapiens, UniProt O43781)	94.2
Ephrin type-B receptor 1 (EPHB1, Homo sapiens, UniProt P54762)	96.4
Serine/threonine-protein kinase 16 (STK16, Homo sapiens, UniProt O75716)	95.1
Phosphorylase b kinase gamma catalytic chain, skeletal muscle/heart isoform (PHKG1, Homo sapiens, UniProt Q16816)	91.8
MAP kinase-activated protein kinase 3 (MAPKAPK3, Homo sapiens, UniProt Q16644)	107
Ribosomal protein S6 kinase alpha-6 (RPS6KA6, Homo sapiens, UniProt Q9UK32)	93.1

Study 4
Target: Diamine acetyltransferase 1 (Homo sapiens, UniProt P21673)
Action: inhibitor
Concentration: 10 µM
Reference: control
Construct (P21673 1-171): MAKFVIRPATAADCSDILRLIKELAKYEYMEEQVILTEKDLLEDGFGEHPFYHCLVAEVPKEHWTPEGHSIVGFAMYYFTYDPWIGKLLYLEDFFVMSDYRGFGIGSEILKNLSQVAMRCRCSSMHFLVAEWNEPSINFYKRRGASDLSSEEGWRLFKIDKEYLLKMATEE
Structure (SMILES)	remaining activity
O=C(O)[C@@H]1CCCN1	90%
Cc1nc(C)c(C)nc1C	91.3%
C[C@H](N)C(=O)O	91.3%
CC(C)=CCc1c(O)ccc(C(=O)/C=C/c2ccc(O)cc2)c1O	90.8%
O=C(/C=C/c1ccc(O)cc1)c1ccc(O[C@@H]2O[C@H](CO)[C@@H](O)[C@H](O)[C@H]2O)cc1O	85.8%
CC1=CC=CC(C)(C)CC1=O	114%
COc1cc([C@@H]2OC[C@@H]3[C@H]2CO[C@H]3c2cc(OC)c(O[C@@H]3O[C@H](CO)[C@@H](O)[C@H](O)[C@H]3O)c(OC)c2)cc(OC)c1O	94.4%
O=c1ccc2cc(O)ccc2o1	100%
CCCSSC	90.2%
CCC/C=C1/OC(=O)c2ccccc21	95.8%
Oc1cc(O)c2ccccc2c1	101%
COc1cc(OC)c2c(=O)cc(-c3ccc(O)c(O)c3)oc2c1	91.9%
